Experimental data collected from several papers.
Protocols differ between the studies behind these lines. Numbers after ± are the reported error.
NR3C1: Glucocorticoid receptor (NR3C1, Homo sapiens, UniProt P04150)
F2: Prothrombin (F2, Bos taurus, UniProt P00735)
Dual specificity protein phosphatase 6: Dual specificity protein phosphatase 6 (Homo sapiens, UniProt Q16828)

By UniProt entry, the sequences of proteins in these tests, tags left out. Where a name states a change or a piece, a line headed by the entry shows the natural chain unless it says otherwise.
UniProt P04150, whole entry: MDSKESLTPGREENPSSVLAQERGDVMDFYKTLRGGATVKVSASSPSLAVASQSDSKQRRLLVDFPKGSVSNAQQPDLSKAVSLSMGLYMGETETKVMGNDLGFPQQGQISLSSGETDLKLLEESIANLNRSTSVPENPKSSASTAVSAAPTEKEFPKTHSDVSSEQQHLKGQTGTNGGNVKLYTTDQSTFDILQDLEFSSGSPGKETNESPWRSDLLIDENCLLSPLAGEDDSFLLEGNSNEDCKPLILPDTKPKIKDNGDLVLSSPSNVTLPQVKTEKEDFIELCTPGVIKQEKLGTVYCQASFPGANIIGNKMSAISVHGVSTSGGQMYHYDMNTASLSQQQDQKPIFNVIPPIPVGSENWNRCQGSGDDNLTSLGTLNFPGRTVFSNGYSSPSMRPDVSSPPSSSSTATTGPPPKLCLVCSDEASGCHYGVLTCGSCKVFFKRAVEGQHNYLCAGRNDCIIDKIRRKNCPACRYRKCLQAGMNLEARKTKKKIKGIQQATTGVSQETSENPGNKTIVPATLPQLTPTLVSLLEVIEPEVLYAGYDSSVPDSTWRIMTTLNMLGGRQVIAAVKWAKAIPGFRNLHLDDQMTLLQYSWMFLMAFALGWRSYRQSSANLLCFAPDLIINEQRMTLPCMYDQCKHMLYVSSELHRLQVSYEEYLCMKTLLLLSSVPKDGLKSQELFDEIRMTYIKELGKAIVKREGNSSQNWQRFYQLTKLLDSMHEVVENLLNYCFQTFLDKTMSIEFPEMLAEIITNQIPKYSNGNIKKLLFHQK
UniProt Q02750, whole entry: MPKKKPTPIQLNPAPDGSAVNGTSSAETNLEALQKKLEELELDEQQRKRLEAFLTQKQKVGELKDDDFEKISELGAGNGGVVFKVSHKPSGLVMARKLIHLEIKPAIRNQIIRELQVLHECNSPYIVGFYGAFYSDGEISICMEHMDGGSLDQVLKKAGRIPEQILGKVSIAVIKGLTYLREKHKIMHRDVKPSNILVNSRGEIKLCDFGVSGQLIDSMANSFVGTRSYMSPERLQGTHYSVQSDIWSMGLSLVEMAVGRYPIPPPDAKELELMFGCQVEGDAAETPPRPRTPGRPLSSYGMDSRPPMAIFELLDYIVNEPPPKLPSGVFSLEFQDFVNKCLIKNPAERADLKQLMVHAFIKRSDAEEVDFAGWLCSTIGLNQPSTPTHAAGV
UniProt P26038, whole entry: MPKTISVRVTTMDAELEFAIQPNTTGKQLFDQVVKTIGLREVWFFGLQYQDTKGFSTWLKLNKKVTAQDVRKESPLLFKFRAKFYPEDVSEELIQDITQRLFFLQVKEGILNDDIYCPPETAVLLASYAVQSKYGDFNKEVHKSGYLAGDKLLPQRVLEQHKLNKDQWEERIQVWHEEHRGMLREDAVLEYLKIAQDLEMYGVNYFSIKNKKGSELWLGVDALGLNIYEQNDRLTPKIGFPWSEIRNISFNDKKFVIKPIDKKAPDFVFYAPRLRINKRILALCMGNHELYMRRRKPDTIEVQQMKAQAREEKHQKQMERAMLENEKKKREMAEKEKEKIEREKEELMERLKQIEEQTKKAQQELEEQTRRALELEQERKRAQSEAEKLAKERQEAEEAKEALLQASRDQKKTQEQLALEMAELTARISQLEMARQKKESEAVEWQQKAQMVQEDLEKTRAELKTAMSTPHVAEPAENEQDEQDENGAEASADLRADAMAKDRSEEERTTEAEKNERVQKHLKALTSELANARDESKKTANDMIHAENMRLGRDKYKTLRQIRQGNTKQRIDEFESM
UniProt P43378, whole entry, looked up: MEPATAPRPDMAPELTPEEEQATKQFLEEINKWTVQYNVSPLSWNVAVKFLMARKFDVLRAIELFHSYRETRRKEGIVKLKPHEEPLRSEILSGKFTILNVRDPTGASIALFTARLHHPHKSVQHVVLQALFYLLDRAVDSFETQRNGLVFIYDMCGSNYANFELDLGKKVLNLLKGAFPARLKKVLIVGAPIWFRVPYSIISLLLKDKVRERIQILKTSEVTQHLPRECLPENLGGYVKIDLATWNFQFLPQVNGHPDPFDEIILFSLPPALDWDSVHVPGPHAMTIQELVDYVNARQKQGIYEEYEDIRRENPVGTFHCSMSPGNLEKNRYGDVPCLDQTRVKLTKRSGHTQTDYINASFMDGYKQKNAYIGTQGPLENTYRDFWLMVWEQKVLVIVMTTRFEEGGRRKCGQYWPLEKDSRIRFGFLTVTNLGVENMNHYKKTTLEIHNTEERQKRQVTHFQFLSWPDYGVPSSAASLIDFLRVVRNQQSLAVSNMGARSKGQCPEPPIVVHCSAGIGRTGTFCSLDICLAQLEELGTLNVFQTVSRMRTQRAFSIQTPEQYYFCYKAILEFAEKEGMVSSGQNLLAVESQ
UniProt P54829, whole entry: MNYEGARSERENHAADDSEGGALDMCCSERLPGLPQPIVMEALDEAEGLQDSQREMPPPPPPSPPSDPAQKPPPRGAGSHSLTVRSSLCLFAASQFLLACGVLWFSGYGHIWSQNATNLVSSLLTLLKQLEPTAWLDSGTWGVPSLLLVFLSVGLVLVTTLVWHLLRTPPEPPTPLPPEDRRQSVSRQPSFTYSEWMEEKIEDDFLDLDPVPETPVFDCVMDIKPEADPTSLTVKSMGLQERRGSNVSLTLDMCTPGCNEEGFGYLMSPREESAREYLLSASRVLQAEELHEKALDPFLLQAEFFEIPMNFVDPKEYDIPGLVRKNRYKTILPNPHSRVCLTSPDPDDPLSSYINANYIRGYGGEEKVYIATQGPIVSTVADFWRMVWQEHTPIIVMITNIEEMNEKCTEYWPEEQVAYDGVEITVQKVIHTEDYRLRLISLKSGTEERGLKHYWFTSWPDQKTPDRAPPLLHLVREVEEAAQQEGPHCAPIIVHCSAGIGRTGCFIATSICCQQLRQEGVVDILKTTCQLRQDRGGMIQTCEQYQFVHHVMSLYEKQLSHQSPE
UniProt P16083, whole entry: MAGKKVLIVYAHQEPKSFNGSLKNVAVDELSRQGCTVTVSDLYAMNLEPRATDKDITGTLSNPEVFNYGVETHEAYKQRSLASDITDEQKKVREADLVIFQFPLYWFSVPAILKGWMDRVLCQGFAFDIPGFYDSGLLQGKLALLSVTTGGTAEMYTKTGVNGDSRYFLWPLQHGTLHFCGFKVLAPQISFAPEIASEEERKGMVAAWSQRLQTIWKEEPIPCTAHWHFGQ
UniProt O60285, whole entry: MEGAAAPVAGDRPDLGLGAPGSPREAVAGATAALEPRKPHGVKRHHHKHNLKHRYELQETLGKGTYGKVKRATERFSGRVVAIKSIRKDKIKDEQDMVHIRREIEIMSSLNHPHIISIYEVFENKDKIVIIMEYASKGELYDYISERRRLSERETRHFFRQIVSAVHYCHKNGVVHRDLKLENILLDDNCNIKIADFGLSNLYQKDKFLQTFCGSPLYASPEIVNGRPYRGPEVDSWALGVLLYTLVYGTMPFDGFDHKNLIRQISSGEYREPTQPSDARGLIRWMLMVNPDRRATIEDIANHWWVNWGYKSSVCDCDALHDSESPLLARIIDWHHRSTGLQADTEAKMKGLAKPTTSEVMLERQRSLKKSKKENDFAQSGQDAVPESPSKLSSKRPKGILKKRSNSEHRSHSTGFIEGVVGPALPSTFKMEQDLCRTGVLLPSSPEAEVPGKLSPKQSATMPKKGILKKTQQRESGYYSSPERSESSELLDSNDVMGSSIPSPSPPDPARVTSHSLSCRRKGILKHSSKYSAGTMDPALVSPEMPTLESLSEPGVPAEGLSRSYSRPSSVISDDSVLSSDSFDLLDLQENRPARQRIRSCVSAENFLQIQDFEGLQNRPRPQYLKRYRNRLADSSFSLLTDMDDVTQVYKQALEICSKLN
UniProt P13569, whole entry: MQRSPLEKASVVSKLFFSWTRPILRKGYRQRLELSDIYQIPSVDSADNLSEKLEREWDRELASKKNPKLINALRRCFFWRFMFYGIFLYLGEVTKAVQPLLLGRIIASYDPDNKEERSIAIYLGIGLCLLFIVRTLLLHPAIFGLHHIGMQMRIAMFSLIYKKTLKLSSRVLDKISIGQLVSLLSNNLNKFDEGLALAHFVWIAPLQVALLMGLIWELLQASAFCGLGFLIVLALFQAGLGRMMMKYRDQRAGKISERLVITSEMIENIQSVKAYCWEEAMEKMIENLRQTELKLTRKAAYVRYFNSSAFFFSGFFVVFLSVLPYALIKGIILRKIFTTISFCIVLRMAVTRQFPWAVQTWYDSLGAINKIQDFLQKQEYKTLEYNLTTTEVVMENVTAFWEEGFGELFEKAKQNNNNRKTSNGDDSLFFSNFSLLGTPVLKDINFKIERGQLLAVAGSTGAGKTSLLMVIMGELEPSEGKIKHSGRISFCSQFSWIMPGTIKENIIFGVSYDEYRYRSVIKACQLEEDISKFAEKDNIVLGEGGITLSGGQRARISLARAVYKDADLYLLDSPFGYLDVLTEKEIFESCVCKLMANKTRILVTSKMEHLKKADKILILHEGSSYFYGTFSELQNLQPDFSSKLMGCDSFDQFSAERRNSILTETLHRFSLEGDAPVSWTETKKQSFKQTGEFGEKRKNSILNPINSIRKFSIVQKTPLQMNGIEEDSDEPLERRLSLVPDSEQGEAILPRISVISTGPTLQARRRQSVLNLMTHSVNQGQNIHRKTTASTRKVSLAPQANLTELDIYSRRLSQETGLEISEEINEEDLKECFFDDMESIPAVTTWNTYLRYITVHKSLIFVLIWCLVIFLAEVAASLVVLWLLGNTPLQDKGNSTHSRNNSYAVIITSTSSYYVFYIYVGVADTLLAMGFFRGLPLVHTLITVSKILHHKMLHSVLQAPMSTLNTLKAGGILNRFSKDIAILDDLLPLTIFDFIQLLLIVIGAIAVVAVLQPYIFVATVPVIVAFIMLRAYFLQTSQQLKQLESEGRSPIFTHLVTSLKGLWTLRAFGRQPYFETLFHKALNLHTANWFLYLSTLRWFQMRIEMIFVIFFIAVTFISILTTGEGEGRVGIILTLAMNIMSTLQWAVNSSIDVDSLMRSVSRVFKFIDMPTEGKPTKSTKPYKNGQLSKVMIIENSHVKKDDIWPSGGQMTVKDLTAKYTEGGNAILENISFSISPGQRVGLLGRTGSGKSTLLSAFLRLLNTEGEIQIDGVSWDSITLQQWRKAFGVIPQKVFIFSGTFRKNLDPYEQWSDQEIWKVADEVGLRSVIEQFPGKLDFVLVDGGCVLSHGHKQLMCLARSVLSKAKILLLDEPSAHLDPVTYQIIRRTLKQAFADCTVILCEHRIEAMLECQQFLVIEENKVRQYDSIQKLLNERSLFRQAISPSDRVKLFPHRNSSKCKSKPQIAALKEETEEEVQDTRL
UniProt P07948, whole entry: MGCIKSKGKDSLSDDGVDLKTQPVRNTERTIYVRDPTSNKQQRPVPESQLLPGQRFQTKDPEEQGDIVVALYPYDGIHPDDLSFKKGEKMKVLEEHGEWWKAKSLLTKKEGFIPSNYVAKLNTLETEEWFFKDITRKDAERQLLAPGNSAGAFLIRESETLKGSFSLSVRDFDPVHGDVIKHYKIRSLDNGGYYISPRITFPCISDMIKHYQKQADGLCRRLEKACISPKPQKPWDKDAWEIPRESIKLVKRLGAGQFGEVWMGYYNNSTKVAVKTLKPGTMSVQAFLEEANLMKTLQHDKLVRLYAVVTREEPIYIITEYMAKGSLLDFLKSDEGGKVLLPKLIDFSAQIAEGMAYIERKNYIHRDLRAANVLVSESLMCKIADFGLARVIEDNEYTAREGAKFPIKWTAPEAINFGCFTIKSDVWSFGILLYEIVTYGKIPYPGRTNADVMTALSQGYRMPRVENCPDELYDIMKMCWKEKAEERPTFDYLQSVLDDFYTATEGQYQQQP
UniProt P51617, whole entry: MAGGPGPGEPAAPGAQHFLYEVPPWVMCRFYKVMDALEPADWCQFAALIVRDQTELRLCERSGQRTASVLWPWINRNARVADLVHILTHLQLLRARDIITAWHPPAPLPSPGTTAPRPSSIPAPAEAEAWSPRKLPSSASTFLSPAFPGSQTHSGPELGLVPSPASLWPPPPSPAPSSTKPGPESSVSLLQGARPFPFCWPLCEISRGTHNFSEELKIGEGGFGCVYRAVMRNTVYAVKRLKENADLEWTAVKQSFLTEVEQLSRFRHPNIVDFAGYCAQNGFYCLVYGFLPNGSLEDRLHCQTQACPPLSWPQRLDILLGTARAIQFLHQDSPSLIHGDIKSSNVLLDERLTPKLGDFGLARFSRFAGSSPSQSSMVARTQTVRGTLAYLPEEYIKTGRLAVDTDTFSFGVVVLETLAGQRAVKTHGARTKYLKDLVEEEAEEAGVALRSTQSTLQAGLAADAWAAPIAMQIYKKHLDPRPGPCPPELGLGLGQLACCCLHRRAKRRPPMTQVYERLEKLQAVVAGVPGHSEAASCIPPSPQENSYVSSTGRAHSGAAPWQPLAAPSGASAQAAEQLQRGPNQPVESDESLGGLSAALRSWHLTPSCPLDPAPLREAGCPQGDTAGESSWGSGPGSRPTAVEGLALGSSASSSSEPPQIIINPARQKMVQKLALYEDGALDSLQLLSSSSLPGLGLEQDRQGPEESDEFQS

SMILES = CN1C/C(=C\c2ccccn2)C(=O)[C@@H](Cc2ccccn2)C1; target or system = MAP2K1 (Homo sapiens, UniProt Q02750); test = kinase cascade activity, inhibitor, Z'-LYTE; setting = together with: ERK2; quantity = IC50; result = > 100 µM
SMILES = O=C1C=C(NCCc2cc(Br)c(O)c(Br)c2)C(=O)c2ncccc21; target or system = Moesin (Homo sapiens, UniProt P26038); test = phosphorylation, inhibitor, in vitro kinase; quantity = IC50; result = 59.5 µM
SMILES = CCc1ccc(C(=O)NCCCCC(NC(=O)C(Cc2ccc(C(F)(F)P(=O)(O)O)cc2)NC(C)=O)C(N)=O)cc1 (stereo not shown); target or system = PTPN9 (Homo sapiens, UniProt P43378); test = enzyme activity, inhibitor; setting = pH 7.0, 25 °C, together with: pNPP 6 mM; quantity = IC50; result = 9 µM
SMILES = O=c1/c(=C/c2ccc(-c3cc(Cl)cc(Cl)c3)o2)sc2nc3cc(Br)cnc3n12; target or system = PTPN5 (Homo sapiens, UniProt P54829); test = phosphatase activity, inhibitor; setting = together with: OMFP; quantity = IC50; result = > 100 µM
SMILES = COc1cc(N2CCN(C)CC2)ccc1Nc1ncc2c(n1)N(C)c1ccccc1C(=O)N2; target or system = FRK (Homo sapiens, UniProt P42685); test = kinase activity, inhibitor; setting = off-target; quantity = IC50; result = 0.264 µM
SMILES = C[C@@]12C[C@H](O)C3[C@H](CCC4=CC(=O)CC[C@]43C)[C@H]1CC[C@@H]2c1csc(N)n1 (stereo partly shown); target or system = NR3C1; test = nuclear translocation, agonist, enzyme fragment complementation; quantity = EC50; result = > 9 µM
SMILES = O=C(Nc1ccc(-c2nc3ccccc3o2)c(O)c1)c1ccc(-c2cccc([N+](=O)[O-])c2)o1; target or system = F2; test = enzyme activity; setting = 30 min preincubation, together with: pyroGlu-Pro-Arg-pNA; quantity = IC50; result = > 20 µM
SMILES = O=C(Nc1cccnn1)N1CC(Oc2ccc(-c3ccccc3F)cn2)C1; test = refers to: plasma endocannabinoids; test system = human, plasma; setting = oral, repeated daily dosing; quantity = dose giving maximum increase; result = 300 to 500 mg/day
SMILES = Cc1ccc(OCc2nnc(NC(=O)Nc3cccc(Cl)c3)s2)cc1C; target or system = F2; test = enzyme activity; setting = 30 min preincubation, together with: pyroGlu-Pro-Arg-pNA; quantity = IC50; result = > 20 µM
SMILES = CC(C)C[C@@H](NC(=O)[C@H](O)Cc1ccccc1)C(=O)N1[C@H](C(=O)NCCC2=CCN(C(=N)N)C2)C[C@@H]2CC[C@@H](O[C@H]3OC[C@@H](O)[C@H](O)[C@H]3O)C[C@@H]21; target or system = F2; test = enzyme activity, inhibitor; quantity = IC50; result = 30 µg/mL
SMILES = c1ccc2[nH]c3c(N=NC4=NCCN4)c4ccccc4c-3nc2c1; target or system = NQO2 (Homo sapiens, UniProt P16083); test = enzyme activity, inhibitor; setting = no BSA, together with: 200 µM NRH, DCPIP; quantity = IC50; result = 0.76 ± 0.12 µM
SMILES = CN1C(=O)c2ccccc2N(C)c2nc(Nc3ccc(N4CCC(O)CC4)cc3)ncc21; target or system = NUAK1 (Homo sapiens, UniProt O60285); test = kinase activity; quantity = IC50; result = < 0.1 µM
SMILES = Cc1cc(C)c2nc3s/c(=C\c4ccc(-c5ccccc5C(=O)O)o4)c(=O)n3c2c1; target or system = Dual specificity protein phosphatase 6; test = phosphatase activity, inhibitor; setting = together with: OMFP; quantity = IC50; result = 17 µM
SMILES = COC(=O)CC[C@@H](C)[C@@H]1CC[C@@H]2[C@@H]3CC[C@H]4C[C@@H](O)CC[C@@]4(C)[C@@H]3CC[C@]21C; target or system = NR3C1; test = nuclear translocation, agonist, enzyme fragment complementation; quantity = EC50; result = > 9 µM
SMILES = O=C(O)c1ccc(/C=C2\SC(=S)N(c3cccc(C(F)(F)F)c3)C2=O)cc1; target or system = CFTR (Homo sapiens, UniProt P13569); test = iodide influx, inhibitor, YFP fluorescence plate reader; test system = FRT cells expressing CFTR; setting = together with: forskolin; quantity = IC50; result = 1 ± 0.2 µM
SMILES = O=c1/c(=C/c2ccccc2Cl)sc2nc3cc(Br)cnc3n12; target or system = Dual specificity protein phosphatase 6; test = phosphatase activity, inhibitor; setting = together with: OMFP; quantity = IC50; result = > 100 µM
SMILES = CCN1CCN(Cc2ccc(NC(=O)c3ccc(C)c(Oc4ncnc5cc(OC)c(OC)cc45)c3)cc2C(F)(F)F)CC1; target or system = LYN (Homo sapiens, UniProt P07948); test = enzyme activity, Z'-LYTE; setting = together with: ATP at Km; quantity = IC50; result = 0.0001 µM
SMILES = O=c1/c(=C/c2ccc(-c3ccccc3[N+](=O)[O-])o2)sc2nc3cc(Br)cnc3n12; target or system = DUSP3 (Homo sapiens, UniProt P51452); test = phosphatase activity, inhibitor; setting = together with: OMFP; quantity = IC50; result = 12 µM
SMILES = COc1cc2ncc(-c3cccc(NC4CCNC4)n3)n2cc1-c1cn[nH]c1 (stereo not shown); target or system = IRAK1 (Homo sapiens, UniProt P51617); test = kinase activity, inhibitor; quantity = IC50; result = 0.0016 µM

A few entries again:
SMILES = CCN1CCN(Cc2ccc(NC(=O)c3ccc(C)c(Oc4ncnc5cc(OC)c(OC)cc45)c3)cc2C(F)(F)F)CC1; target or system = LYN (Homo sapiens, UniProt P07948); test = enzyme activity, Z'-LYTE; setting = together with: ATP at Km; quantity = IC50; result = 0.0001 µM
